Measurements gathered from unrelated publications.
Numbered parts are unrelated; each lists some results of a single study.

Block 1 — technique: RNA Bind-n-Seq; form: RNA; matrix: in vitro; concentration: 1 µM; notes: whole 134-nt RNA, ends assumed; with: 150 mM KCl; reference: input library; direction: higher = stronger binding
Target: Ras GTPase-activating protein-binding protein 1, C-terminal RGG region (G3BP1, Homo sapiens, UniProt Q13283)
Chain of UniProt Q13283 (whole entry, looked up): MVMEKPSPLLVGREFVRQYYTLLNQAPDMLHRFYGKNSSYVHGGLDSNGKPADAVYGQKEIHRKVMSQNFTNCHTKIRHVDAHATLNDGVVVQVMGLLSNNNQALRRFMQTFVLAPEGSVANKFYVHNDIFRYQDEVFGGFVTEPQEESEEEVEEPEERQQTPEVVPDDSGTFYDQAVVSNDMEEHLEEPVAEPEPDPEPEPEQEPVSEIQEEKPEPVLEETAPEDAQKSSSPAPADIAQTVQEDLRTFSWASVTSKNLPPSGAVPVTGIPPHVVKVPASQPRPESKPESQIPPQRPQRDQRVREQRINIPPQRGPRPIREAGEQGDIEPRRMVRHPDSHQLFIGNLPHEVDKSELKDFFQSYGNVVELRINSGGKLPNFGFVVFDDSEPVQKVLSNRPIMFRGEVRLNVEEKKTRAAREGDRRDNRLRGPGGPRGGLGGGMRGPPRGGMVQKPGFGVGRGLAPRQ
All sequences stand within: GGGAGUUCUACAGUCCGACGAUC … UGGAAUUCUCGGGUGUCAAGG
For `CUGUGCUACACAUCGUAUGUACCGAAUCGGGGCCCCCCGGGGCCCCCCGGGCCCCCCGGGGAAAGUAUUAUGUUACGCCGUUCGGAUCUG`, the log2 enrichment was -2.27.
`UGUGGAGGAGACGGCCGACUCGACGCUGUGCCACAUCCUGAACCUGUACCGGCGGGCCACCUGGCUGCACCAGGCGCUGCGGGAGGGCAC` has a log2 enrichment of -0.769.
`UCAAGUCCUGUGCUACACAUCGUAUGUACCGAAUCGGGUUUGGGUGGGUUUGGGAAAGUAUUAUGUUACGCCGUUCGGAUCUGCACUUCC` gave a log2 enrichment of 2.08.
The log2 enrichment of `AAGUCCUGUGCUACACAUCGUAUGUACCGAAUCGGCCCCCGGCCCCCGGCCCCCGGAAAGUAUUAUGUUACGCCGUUCGGAUCUGCACUU` is reported as -1.75.
For `CACAGACAACACGCACCCACACAAACACAGAGGGAAGGGGUUGGGAUGGGGACAGGGUGCACAGCAGGGCGGGGUAGGACCCCAGCCCCU`, the log2 enrichment was -0.305.
The log2 enrichment of `CUGUGCUACACAUCGUAUGUACCGAAUCGGGGUUUUUUUGGGGUUUGGGGUUUUUUUGGGGAAAGUAUUAUGUUACGCCGUUCGGAUCUG` is reported as 0.192.
With `UAACUUUAGAGGAGGAUCUGAUGGAUAUGGCAGUGGACGUGGAUUUGGGGAUGGCUAUAAUGGGUAUGGAGGAGGACCUGGAGGUGACAA` the log2 enrichment was -0.601.
For `UUCUUGCCAGAGACGAAGAAGCGCAAGAAACGCAAGUCAGAGGAUGGCACGCCAGCGGAGGAUGGCACACCUGCAGCCACCGGCGGGAGC`, the log2 enrichment was -1.96.
The log2 enrichment of `AGUCCUGUGCUACACAUCGUAUGUACCGAAUCGGGAGGGAAAAAGGGAAAAAAAGGGAAAGUAUUAUGUUACGCCGUUCGGAUCUGCACU` is reported as -0.15.
With `UGCACACCGCCUUGCACAUAGCAGAGGCUCCGGGCUCACUCCUUCCUGGUGGGAAAGGAAGAUGCCUGUCCUCUCCGUGGAAGACCCUGG` the log2 enrichment was -1.51.
`GUCCUGUGCUACACAUCGUAUGUACCGAAUCGGGAAAAAGGGAAAAAGGGAAAAAGGGAAAGUAUUAUGUUACGCCGUUCGGAUCUGCAC` has a log2 enrichment of -0.341.
With `AAGUCCUGUGCUACACAUCGUAUGUACCGAAUCGGAAAGGAAAAAGGUUUUUUUGGAAAGUAUUAUGUUACGCCGUUCGGAUCUGCACUU` the log2 enrichment was -2.12.
With `UAACUUUAGAGGCGGAUCUGAUGGAUAUGGCAGUGGACGUGGAUUUGGGGAUGGCUAUAAUGGGUAUGGAGGAGGACCUGGAGGUGGCAA` the log2 enrichment was -1.4.
`GUGAAUCAAAAACUCUGGUUUUAAGCAACCUCUCCUACAGUGCAACAGAAGAAACUCUUCAGGAAGUAUUUGAGAAAGCAACUUUUAUCA` gave a log2 enrichment of 0.193.

Block 2 — technique: protein binding microarray; form: double-stranded DNA, one strand shown; matrix: in vitro; concentration: not given; reference: not given; direction: higher = stronger binding
Target: Histone acetyltransferase KAT6A, winged helix 2, GST fusion (KAT6A, Homo sapiens, UniProt Q92794, residues 85-181)
Notes: 8-mer, flanks averaged, mean of 2 arrays, mostly near background
Residues (chain): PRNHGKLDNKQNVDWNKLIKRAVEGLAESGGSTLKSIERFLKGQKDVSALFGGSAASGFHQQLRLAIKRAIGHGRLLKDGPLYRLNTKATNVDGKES
The E-score of `AAGTAAGT` is reported as -0.143.
With `CGGGTGCA` the E-score was 0.0996.
`CTCTCCTA` gave an E-score of -0.0561.
For `ATAAAGAA`, the E-score was 0.123.
`ACTCGACA` has an E-score of 0.0037.
`TACACCAA` gave an E-score of -0.123.
`CGTGTGAA` gave an E-score of 0.0741.
`ATATTGCG` has an E-score of -0.0615.
For `GAGAACGA`, the E-score was 0.00748.
For `ATGCACTG`, the E-score was 0.108.
The E-score of `CGCACAAG` is reported as 0.0618.
`CGTTTTCC` has an E-score of -0.16.
`AATGCGTC` gave an E-score of -0.0623.
`CTTCAGTA` has an E-score of 0.0589.
`CCGATCAC` has an E-score of 0.107.
`CACGTGTC` has an E-score of -0.253.
`CCGTATAC` gave an E-score of -0.128.

Block 3 — technique: RNA Bind-n-Seq; form: RNA; matrix: in vitro; concentration: 100 nM; reference: input RNA pool; direction: higher = stronger binding
Target: RING finger protein unkempt homolog, zinc fingers 1-6, SBP tag (UNK, Homo sapiens, UniProt Q9C0B0, residues 30-357)
Chain of UniProt Q9C0B0 (30-357, looked up): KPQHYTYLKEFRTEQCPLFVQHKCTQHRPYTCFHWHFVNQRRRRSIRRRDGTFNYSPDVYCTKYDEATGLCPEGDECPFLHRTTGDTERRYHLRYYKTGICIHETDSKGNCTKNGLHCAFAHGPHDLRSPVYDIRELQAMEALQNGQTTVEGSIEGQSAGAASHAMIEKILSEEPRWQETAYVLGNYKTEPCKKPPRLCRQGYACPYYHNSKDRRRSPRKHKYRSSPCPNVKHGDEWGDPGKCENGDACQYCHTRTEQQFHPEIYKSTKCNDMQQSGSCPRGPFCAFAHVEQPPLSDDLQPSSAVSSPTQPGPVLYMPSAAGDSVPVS
Notes: RNA with constant flanks, vertebrate orthologous sites, ends assumed
All sequences stand within: GGGAGUUCUACAGUCCGACGAUC … CAACAGAGGAUUGAGCAUCA
With `GGGACGCUUUGACAUAAAGCUCACCGUGUCGUGACCUGAGCUACAGGGAGCACUCAAUUUGAAAACGAAUACAACUUAGAGAAAACAGUUCAGAUAAAAACCACCACUAGUCUUUGAACA` the bound/input enrichment was 0.321 ratio.
`UUUAUAAAAUUUGGACCUUGGAGUGGAACCAGGAGCCAGCAAAACAAACUUGUAAAAUUAUAGUAAUAGGCAGGCACAACAGUACUACCACUAGCAGCUGUUAAUUUAUAAAGAGAAAUU` gave a bound/input enrichment of 1.63 ratio.
`GUGCAAGGAGAUUAUUCCAACUAGUGAAUUCAUUAACAGUAAGUUGACAGCAAAGGCAAAUCGGCAGCUUCAGGAUCCAUUAGUAAUCAUGACAGGAAACAUCCCAGCAUGGCUGACUGA` gave a bound/input enrichment of 0.503 ratio.
`UCUCUACAGUUUUAAAGACACUCCCUUAUAAGGCACUUUGGCUCUUCAUAUAUUUAACCGUAUUUACAUAUCUAUUUUUUAUAAGUAGCAGUAUAAAUUCAAAGGGGACUCCAACCUUUA` gave a bound/input enrichment of 0.393 ratio.
With `GUCUAGGUAGGGGUAACCAUUAACUUAUUUUAUAAGGAAAUGAAAUGCUGAAAAUCACGUUAGUGCCAAGUUUAGCUGGAGAACAUGAGCCCCUUUUAGGUGAUUCUCAAGUGGAACUCC` the bound/input enrichment was 0.395 ratio.
For `AGCAGGUCAGGGAUUGAGGCCCACCUUCCCACAUAUACCAAGCAGGUACGGAAUCAACAGGAUGGGACAGCCAAGACCCUGAUGGACUCUUAACGUACUGUUAUGGGAGUGUCGACUCCU`, the bound/input enrichment was 0.261 ratio.
`AGGGCUGUGUAGAGUAGGGCUGUGUUCUCCUUAGGAUGUUGCUUCUUGAUUUUUUUUUUUUAGGGGUGGGUCAGGGUUGUGACACACCAGCCCAGGCGAGAGCUGCUGUAGGUCACCUCA` gave a bound/input enrichment of 3.07 ratio.
With `AACAAAAAAACGUUUCCACUGGGUUUUGCCUGUAAGAAAAUAAAAAUGUACCCGAGCACAUAGAGCUUUUUAACAGCACUAACCAAUGCCUUUUUAGAUGUAUUUUUGAUGUAUAUAUCU` the bound/input enrichment was 0.554 ratio.
With `AAAUUUAUUUCAUGCCCUGGACUCCCUAUCGUACCGAUACUUUAAUAGAAUAUGCUUCUUUAGAAGAUUUCCAAAAUAGUCGCCAAACAACAACGUAUAAACUUCCAAAUCGAGUAGAUG` the bound/input enrichment was 1.42 ratio.
With `AAGGAGCAGCAUAGACUGUUUGAGCUUUGGGGAAAUGAGCUUUUGCUUUUUGUAUUUAAAUAGGAUACUUUUAUAUGAUGGGUGCUUUUGAGUGUGAACGCAGCAGGCUCUCCAUUUCAG` the bound/input enrichment was 1.25 ratio.
With `CUCUCUUAGCGAUAGUAUUCCAUCUGUAGCAGAUUCGCACUCGAGUCAUUUUUCUGAGUUUAGUUGCUCCGAUAUGGAAAGUAUGAAAACUUCCUGUAGCCAUGGUUCCAGUGACUAUCA` the bound/input enrichment was 0.62 ratio.

Mixed results
For `PhoQ, residues 284 288 289 292 302 303 SQSLSM`, the fold induction was 30.2 (PhoP, residues 12 14 15 18 19 NHTVL (Escherichia coli, UniProt P23836); Sort-seq, refers to: YFP reporter; E. coli; PhoQ-PhoP variant library, with: 10 µM Mg2+; reference: high Mg2+ state, higher = stronger signaling).

Some of these lines once more (block 2):
The E-score of `AAGTAAGT` is reported as -0.143.
`TACACCAA` gave an E-score of -0.123.
For `ATAAAGAA`, the E-score was 0.123.
